# Measurements from different studies.
# Compare with care: the assays were run in different laboratories. ± marks the error that the study gave.
# SCRIB PDZ3 domain: Protein scribble homolog, PDZ3 domain (SCRIB, Homo sapiens, UniProt Q14160)
# UniProt Q14160, sequence (whole entry, looked up): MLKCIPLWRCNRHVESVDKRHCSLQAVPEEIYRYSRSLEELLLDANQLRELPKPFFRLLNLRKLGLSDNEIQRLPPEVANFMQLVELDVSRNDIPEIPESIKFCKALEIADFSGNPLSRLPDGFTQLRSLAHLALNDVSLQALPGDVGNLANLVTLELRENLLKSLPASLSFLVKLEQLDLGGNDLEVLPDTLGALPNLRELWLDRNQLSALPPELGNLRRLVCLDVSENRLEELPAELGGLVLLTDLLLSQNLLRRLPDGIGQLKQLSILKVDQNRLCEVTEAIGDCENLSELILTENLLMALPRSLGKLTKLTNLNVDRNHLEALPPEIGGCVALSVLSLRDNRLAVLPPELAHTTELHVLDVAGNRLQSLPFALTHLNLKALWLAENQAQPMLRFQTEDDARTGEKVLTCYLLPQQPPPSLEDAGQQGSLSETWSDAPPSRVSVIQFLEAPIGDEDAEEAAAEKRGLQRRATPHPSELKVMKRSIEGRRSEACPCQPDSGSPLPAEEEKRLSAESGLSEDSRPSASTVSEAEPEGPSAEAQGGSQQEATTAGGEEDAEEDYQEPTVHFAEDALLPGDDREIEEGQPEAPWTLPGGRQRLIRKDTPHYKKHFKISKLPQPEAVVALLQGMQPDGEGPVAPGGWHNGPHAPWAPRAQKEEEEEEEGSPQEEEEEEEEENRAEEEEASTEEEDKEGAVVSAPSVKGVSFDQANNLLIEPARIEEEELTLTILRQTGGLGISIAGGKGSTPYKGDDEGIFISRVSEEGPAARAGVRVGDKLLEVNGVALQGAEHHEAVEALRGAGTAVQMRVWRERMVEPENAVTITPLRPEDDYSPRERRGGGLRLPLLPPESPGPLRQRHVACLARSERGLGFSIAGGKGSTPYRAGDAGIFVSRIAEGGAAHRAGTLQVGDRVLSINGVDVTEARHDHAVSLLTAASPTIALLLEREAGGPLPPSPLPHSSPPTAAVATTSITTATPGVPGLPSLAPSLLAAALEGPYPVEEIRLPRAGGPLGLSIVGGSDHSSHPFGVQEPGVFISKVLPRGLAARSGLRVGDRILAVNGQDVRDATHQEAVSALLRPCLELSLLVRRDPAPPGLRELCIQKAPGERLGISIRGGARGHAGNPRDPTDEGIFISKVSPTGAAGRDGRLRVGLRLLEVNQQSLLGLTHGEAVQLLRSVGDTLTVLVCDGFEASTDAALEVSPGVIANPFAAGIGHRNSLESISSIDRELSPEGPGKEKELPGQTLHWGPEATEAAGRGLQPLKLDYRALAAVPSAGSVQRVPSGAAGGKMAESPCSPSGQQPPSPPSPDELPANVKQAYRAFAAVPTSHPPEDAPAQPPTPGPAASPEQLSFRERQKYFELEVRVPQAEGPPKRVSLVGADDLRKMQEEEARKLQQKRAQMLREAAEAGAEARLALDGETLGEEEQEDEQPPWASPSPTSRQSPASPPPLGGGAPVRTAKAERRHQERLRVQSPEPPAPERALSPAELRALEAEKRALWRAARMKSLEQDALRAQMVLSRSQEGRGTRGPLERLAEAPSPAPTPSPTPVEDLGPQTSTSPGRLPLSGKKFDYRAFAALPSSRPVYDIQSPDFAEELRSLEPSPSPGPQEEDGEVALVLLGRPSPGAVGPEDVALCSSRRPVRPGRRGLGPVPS
# UniProt Q16543, sequence (whole entry, looked up): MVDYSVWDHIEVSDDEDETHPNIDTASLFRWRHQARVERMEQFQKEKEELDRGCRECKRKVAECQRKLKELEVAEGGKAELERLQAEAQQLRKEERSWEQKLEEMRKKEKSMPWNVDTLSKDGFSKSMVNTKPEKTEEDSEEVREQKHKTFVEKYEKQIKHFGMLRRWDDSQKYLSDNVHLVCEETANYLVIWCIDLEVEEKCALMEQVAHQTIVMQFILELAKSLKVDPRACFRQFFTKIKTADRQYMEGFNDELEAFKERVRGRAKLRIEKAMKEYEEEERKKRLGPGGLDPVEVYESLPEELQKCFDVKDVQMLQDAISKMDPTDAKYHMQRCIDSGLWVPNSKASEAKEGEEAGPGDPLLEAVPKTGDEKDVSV
# UniProt Q8NFD2, sequence (whole entry, looked up): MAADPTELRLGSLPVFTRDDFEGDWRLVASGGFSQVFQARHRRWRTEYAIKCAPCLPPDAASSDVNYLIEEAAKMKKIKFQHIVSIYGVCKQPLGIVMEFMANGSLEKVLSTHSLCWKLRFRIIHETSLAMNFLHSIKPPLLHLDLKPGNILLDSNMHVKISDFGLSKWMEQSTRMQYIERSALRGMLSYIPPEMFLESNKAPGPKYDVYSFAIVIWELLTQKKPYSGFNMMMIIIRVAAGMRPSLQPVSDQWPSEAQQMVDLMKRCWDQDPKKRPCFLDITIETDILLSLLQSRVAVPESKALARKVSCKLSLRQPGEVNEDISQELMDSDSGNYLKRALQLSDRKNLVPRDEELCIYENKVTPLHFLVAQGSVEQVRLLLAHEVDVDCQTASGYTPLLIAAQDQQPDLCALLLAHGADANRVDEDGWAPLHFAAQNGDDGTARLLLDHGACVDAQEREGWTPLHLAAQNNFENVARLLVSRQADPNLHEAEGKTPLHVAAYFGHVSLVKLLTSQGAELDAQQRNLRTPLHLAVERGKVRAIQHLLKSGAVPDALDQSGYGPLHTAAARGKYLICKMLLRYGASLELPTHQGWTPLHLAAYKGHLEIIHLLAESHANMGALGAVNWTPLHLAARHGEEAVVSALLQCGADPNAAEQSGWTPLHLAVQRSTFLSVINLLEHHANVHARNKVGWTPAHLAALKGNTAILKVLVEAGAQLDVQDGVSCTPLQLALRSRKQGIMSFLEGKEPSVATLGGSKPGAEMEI
# UniProt O15111, sequence (whole entry, looked up): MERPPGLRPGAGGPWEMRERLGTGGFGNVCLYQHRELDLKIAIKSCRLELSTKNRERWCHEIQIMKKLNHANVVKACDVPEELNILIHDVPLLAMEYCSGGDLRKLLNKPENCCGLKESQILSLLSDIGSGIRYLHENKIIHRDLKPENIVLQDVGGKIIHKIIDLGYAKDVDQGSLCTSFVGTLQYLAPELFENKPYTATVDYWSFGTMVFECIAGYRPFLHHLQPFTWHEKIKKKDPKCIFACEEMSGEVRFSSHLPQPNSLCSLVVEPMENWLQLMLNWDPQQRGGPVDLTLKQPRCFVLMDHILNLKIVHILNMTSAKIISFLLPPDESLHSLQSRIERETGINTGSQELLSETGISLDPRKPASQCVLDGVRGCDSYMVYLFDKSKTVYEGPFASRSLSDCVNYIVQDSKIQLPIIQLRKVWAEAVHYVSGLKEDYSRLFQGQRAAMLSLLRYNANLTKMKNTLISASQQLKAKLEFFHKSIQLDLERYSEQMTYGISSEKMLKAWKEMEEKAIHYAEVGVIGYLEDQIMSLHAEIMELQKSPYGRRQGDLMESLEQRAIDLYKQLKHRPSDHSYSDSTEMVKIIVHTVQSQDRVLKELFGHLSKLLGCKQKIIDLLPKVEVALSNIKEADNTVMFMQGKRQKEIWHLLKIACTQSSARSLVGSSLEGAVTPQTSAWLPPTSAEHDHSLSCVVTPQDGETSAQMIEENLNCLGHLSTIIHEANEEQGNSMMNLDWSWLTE
# UniProt P68402, sequence (whole entry, looked up): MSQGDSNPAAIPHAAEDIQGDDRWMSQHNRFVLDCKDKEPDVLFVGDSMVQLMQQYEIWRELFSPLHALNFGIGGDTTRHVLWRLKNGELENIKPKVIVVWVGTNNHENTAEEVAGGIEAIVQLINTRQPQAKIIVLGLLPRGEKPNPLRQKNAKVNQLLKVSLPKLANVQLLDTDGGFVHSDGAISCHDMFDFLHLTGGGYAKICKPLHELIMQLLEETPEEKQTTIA
# UniProt P54753, sequence (whole entry, looked up): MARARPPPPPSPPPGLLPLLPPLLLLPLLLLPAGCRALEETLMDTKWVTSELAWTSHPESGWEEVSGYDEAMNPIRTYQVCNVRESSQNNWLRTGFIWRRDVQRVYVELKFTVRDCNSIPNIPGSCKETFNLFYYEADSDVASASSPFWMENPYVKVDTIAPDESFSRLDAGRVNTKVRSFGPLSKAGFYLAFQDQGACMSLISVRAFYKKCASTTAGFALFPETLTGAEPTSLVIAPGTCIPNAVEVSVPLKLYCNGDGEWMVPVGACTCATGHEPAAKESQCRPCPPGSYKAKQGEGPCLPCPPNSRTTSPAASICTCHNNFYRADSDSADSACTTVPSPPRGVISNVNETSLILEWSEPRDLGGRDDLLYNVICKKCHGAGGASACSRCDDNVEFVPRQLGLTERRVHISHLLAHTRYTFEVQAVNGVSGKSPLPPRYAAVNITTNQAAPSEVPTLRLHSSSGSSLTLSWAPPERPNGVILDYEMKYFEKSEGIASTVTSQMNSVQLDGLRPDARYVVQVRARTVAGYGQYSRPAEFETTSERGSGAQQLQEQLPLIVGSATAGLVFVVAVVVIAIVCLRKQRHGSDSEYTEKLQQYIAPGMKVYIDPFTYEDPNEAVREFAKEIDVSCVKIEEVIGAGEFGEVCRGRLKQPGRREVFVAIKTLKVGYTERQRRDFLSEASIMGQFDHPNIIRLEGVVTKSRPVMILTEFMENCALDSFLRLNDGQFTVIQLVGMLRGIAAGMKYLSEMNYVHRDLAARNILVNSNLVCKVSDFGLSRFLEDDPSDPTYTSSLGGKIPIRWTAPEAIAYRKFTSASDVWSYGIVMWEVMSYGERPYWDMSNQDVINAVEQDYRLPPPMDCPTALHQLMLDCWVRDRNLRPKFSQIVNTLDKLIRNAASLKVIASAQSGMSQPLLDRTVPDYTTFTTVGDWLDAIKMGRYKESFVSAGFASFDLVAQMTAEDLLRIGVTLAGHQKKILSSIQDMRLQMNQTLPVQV
Compound,target or system,assay,test system,conditions,how to read,endpoint,value
O=C(Nc1cccnn1)N1CCC(=Cc2cccc(Oc3ccc(C(F)(F)F)cn3)c2)CC1,"CHUK (Homo sapiens, UniProt O15111)","enzyme activity, inhibitor",,10 µM,,inhibition,0%
O=C(c1ccc(Cl)cc1)N1CCN2C(=O)N(OC(=O)N3CCOc4ccccc43)C(=O)C2C1 (stereo not drawn),"Platelet-activating factor acetylhydrolase IB subunit alpha2 (Homo sapiens, UniProt P68402)","enzyme activity, inhibitor, MS-based ABPP",SW-620 in situ,"10 µM, 2 h, 37 °C","baseline: compound over DMSO, lower = stronger inhibition",median ratio,1.13
C[C@H]1CN(c2n[nH]c3nc(N[C@H]4CC[C@H](NS(=O)(=O)CCC(F)(F)F)CC4)ncc23)CCO1,"CDC37 (Homo sapiens, UniProt Q16543)","inhibitor, Kinobeads competition profiling",,0.032 µM,baseline: vehicle,relative abundance,0.95
[2H]c1c([2H])c([C@]2([2H])CCCN2C(=O)C(C)(C)Oc2ccc3cn[nH]c3c2)c([2H])c([2H])c1C([2H])([2H])[2H],"ANKK1 (Homo sapiens, UniProt Q8NFD2)",KINOMEscan,,1 µM,baseline: DMSO control,remaining binding,96%
C[C@]12CC[C@H]3[C@@H](CCC4=CC(=O)CC[C@@]43C)[C@@H]1CC[C@@H]2C(=O)CO,"CYP11B2 (Homo sapiens, UniProt P19099)",substrate,,steady state,,aldosterone formation rate,6.3 pmol/min/pmol P450
CC(C)C[C@H](NC(=O)C[C@H](O)[C@H](CC(C)C)NC(=O)[C@H](Cc1c[nH]cn1)NC(=O)CNC(=O)[C@@H](NC(=O)[C@H](C)NC(=O)[C@H](Cc1c[nH]c2ccccc12)NC(=O)[C@H](CCC(N)=O)NC(=O)[C@@H](Cc1ccccc1)NC(=O)CCNC(=O)CCSc1nnc(NCCC(=O)NCCC(=O)NCCCC[C@H](NC(=O)N[C@@H](CCC(=O)O)C(=O)O)C(=O)O)c2c1CCC1C(CC2)C1COC(=O)NCCNC(=O)CC[C@H](C(=O)O)N1CCN(CC(=O)O)CCN(CC(=O)O)CC1)C(C)C)C(N)=O (stereo partly drawn) [gallium-68 labelled],,,"athymic NMRI nude mouse, spleen","intravenous, 533 pmol, 2 h",,tissue uptake,0.3 %ID/g
CC(C)C[C@H](NC(=O)[C@@H]1CCCN1C(=O)[C@@H](NC(=O)[C@H](CCC(=O)O)NC(=O)[C@H](CCCCN)NC(=O)[C@H](CCCCN)NC(=O)[C@H](Cc1ccc(O)cc1)NC(=O)[C@H](CC(N)=O)NC(=O)[C@H](Cc1ccccc1)NC(=O)[C@@H](N)CO)[C@@H](C)O)C(=O)O,SCRIB PDZ3 domain,"binding, fluorescence polarization",solution,Scribble PDZ3 domain,,Kd,1.5 µM
COC(=O)N[C@H](C(=O)N1CCC[C@H]1c1ncc(-c2ccc3cc(-c4ccc5nc([C@@H]6CCCN6C(=O)[C@@H](NC(=O)OC)C(C)C)[nH]c5c4)ccc3c2)[nH]1)C(C)C,African green monkey cells,,,5 days,,CC50,12.7 µM
CC(C)C[C@H](NC(=O)[C@H](CS)NC(=O)[C@H](Cc1c[nH]cn1)NC(=O)[C@H](CC(C)C)NC(=O)[C@H](C)NC(=O)[C@H](CCC(=O)O)NC(=O)[C@H](CC(C)C)NC(=O)[C@H](CCC(=O)O)NC(=O)[C@@H]1CCCN1C(=O)[C@@H](N)CC(=O)O)C(=O)O,SCRIB PDZ3 domain,"binding, fluorescence polarization",solution,Scribble PDZ3 domain,,Kd,38.8 µM
O=C(Nc1cnccc1Cl)N1CCN(Cc2ccc3c(c2)OC(F)(F)O3)CC1,"GABBR1 (Homo sapiens, UniProt Q9UBS5)",radioligand binding,,"50 µM, with: [3H]CGP-54626",,inhibition of binding,4%
C[N+](C)(C)C,"Chrnd/Chrna1/Chrne (Mus musculus, UniProt P02716+P04756+P20782, G173A/S470W)","ligand binding, agonist, single-channel kinetics",,chain A,baseline: wild type over mutant,affinity ratio,0.7
COc1ccc(N2C(=O)N(c3c(C)cccc3Cl)Cc3cnc(Nc4ccc(C5CCN(C)CC5)cc4OC)nc32)nc1,"EPHB3 (Homo sapiens, UniProt P54753)",kinase activity,,0.5 µM,,inhibition,68%
C/C(=C\C(=O)OCCCCCCCC(=O)Nc1c2sscc-2[nH]c1=O)[C@@H](O)[C@@H]1OC[C@H](C/C=C/[C@@H](C)[C@H](C)O)[C@@H](O)[C@H]1O,"Isoleucine--tRNA ligase (ileS, Staphylococcus aureus, UniProt Q5HGN8)",isothermal titration calorimetry,,"concentration not given, pH 7.4, 25 °C, nonreducing",,enthalpy of binding,-12.4 ± 0.4 kcal/mol
CN(C(=O)n1cnc(-c2ccc[n+]([O-])c2)c1)C1CCCCC1,"IP3 receptor, rat",binding,,"50 µM, with: [3H]IP3",,inhibition,20%
CN1CCN(c2cc(-c3ccncc3)c(-c3ccc4ccccc4c3)nn2)CC1,"XCR1 (Homo sapiens, UniProt P46094)","antagonist, FLIPR",,10 µM,,inhibition,35.3%

# Some of these lines once more:
Compound,target or system,assay,test system,conditions,how to read,endpoint,value
O=C(Nc1cccnn1)N1CCC(=Cc2cccc(Oc3ccc(C(F)(F)F)cn3)c2)CC1,"CHUK (Homo sapiens, UniProt O15111)","enzyme activity, inhibitor",,10 µM,,inhibition,0%
C[N+](C)(C)C,"Chrnd/Chrna1/Chrne (Mus musculus, UniProt P02716+P04756+P20782, G173A/S470W)","ligand binding, agonist, single-channel kinetics",,chain A,baseline: wild type over mutant,affinity ratio,0.7
